{"data": "Measured values from different studies", "note": "Protocols differ between the studies behind these lines. Numbers after ± are the reported error."}
{"SMILES": "COc1cc(-c2cn(C)c(=O)c3cnccc23)cc(OC)c1CN(C)C", "cell line": "MV4-11", "test": "cell growth or viability, ATP luminescence", "IC50 [µM]": 10.6}
{"SMILES": "COc1cc(S(=O)(=O)Oc2ccc3[nH]c(C)cc3c2F)cc(OC)c1OC", "cell line": "SUIT-2", "test": "cell growth or viability, fluorescence", "conditions": "72 h", "IC50 [µM]": 0.0105}
{"SMILES": "O=c1cc(-c2ccc(O)cc2)oc2cc(O)cc([O][Ga+][O]c3cc(O)cc4oc(-c5ccc(O)cc5)cc(=O)c34)c12", "cell line": "LO2", "test": "cell viability, MTT", "IC50 [µM]": "> 200"}
{"SMILES": "CN1CCC(N[C@H]2CCc3[nH]c4c(C(N)=O)ccc(-c5ccccc5Cl)c4c3C2)CC1", "cell line": "DOHH-2", "test": "cell growth or viability", "IC50 [µM]": 1.51}
{"SMILES": "O=C1CC(c2ccc(O)cc2)Oc2cc(O)cc([O][Ga+][O]c3cc(O)cc4c3C(=O)CC(c3ccc(O)cc3)O4)c21 (stereo not shown)", "cell line": "LO2", "test": "cell viability, MTT", "IC50 [µM]": "> 200"}
{"SMILES": "Cn1ncc(-c2ccc3c(=O)[nH]nc(CN)c3c2)c1-c1c(F)c(Cl)cc(OC2CC2)c1C#N", "cell line": "AGS", "test": "cell viability, inhibitor, CellTiter-Glo", "conditions": "120 h, baseline-subtracted", "IC50 [µM]": 0.47}
{"SMILES": "CC(=O)NCCOCCNC(=O)c1cc(C(=O)N2CCNCCNCCNCC2)c(O)c(C(=O)N2CCNCCNCCNCC2)c1", "cell line": "2C6 normal pancreas", "test": "cell viability, MTT", "conditions": "24 h", "IC50 [µM]": "> 1000"}
{"SMILES": "O=C(Nc1cc(-c2ccnc3[nH]ccc23)c(Cl)cn1)[C@H]1CCC[C@@H](NC(=O)C(F)(F)F)C1", "cell line": "JeKo-1 BTK knock-down, BTK inhibitor-resistant", "test": "cell viability", "conditions": "72 h", "IC50 [µM]": 0.11}
{"SMILES": "O=C(c1cccc(N2Cc3cn(Cc4ccc(F)cc4)nc3C2)c1)N1CCCC1", "cell line": "HEK293 expressing GluA1 and GluA2", "test": "glutamate excitotoxic cell death, CellTox Green", "conditions": "together with: glutamate", "IC50 [µM]": 1.15}
{"SMILES": "CCn1nc(Cl)c2c1-c1cnc(N)c(c1)O[C@H](C)c1cc(F)ccc1-c1nn(C)cc1C2", "cell line": "Ba/F3 parental", "test": "cell viability", "conditions": "together with: 10 ng/mL IL-3", "IC50 [µM]": "> 10"}
{"SMILES": "C=CC(=O)N1CCCC(n2c(=O)c3ncccc3n(Cc3ccc(Oc4ccccc4)cc3)c2=O)C1 (stereo not shown)", "cell line": "KI-JK", "test": "cell proliferation, MTT", "conditions": "72 h", "IC50 [µM]": 20}
{"SMILES": "CC(C)c1ccc(N(C)c2ccc3c(c2)OCC[C@H]3CNc2cnccc2C(=O)O)cc1", "cell line": "HCC70", "test": "cell growth or viability, ATP luminescence", "conditions": "7 days", "IC50 [µM]": 0.011}
{"SMILES": "Cc1ccc(C(C)C)cc1.Cc1ccc(C(C)C)cc1.Cc1ccc(C(C)C)cc1.Cc1ccc(C(C)C)cc1.O=S(=O)(O)C(F)(F)F.O=S(=O)(O)C(F)(F)F.O=S(=O)(O)C(F)(F)F.O=S(=O)(O)C(F)(F)F.c1ccc2c3c4ccccc4c(c2c1)-c1cn(nn1)-c1cc[n+](cc1)[Ru-]1[O]c2c4ccccc4c4c5c(c6ccccc6c(c25)=[O+]1)=[O+][Ru-]([O]4)[n+]1ccc(cc1)-n1cc(nn1)-c1c2ccccc2c(c2ccccc12)-c1cn(nn1)-c1cc[n+](cc1)[Ru-]1[O]c2c4ccccc4c4c5c(c6ccccc6c(c25)=[O+]1)=[O+][Ru-]([O]4)[n+]1ccc(cc1)-n1cc-3nn1", "cell line": "AGS", "test": "cell growth or viability, MTT", "conditions": "24 h", "IC50 [µM]": 5.4}
{"SMILES": "O=C(Nc1cc(OCCN2CCCC2)c2ccccc2n1)c1cccc(C(=O)Nc2cc(OCCN3CCCC3)c3ccccc3n2)n1", "cell line": "HT-1080", "test": "cell growth or viability, ATP luminescence", "conditions": "72 h", "IC50 [µM]": 0.6}
{"SMILES": "CCNC(=S)N/N=C(\\C)c1c(O)c2ccccc2oc1=O", "cell line": "human Skin fibroblast", "test": "cell growth or viability, MTT", "conditions": "48 h", "IC50 [µM]": "> 100"}
{"SMILES": "Cc1cc2cc(C(=O)N(Cc3ccc(C(F)(F)F)cn3)[C@H](C)c3ncccn3)ccc2nc1N", "cell line": "DOHH-2", "test": "cell growth", "IC50 [µM]": 0.017}
{"SMILES": "CCN(C(=O)c1cc(F)ccc1Oc1nncnc1N1CCC2(C1)CN([C@H](CCCN(C)CCOC)C(C)C)C2)C(C)C", "cell line": "MOLM-14 (KMT2A-AF9, FLT3-ITD)", "test": "mRNA level, QuantiGene multiplex, measured: PBX3", "IC50 [µM]": "0.106 ± 0.025"}
{"SMILES": "O=C(NCCOCCOCCOCCNC(=O)c1cc2ccccc2c2ccccc12)c1cc(C(=O)N2CCNCCNCCNCC2)c(O)c(C(=O)N2CCNCCNCCNCC2)c1", "cell line": "2C6 normal pancreas", "test": "cell viability, MTT", "conditions": "24 h", "IC50 [µM]": "> 1000"}
{"SMILES": "CCOc1cncc(-c2ccc(NC(=O)C3(c4ccnc(NS(=O)(=O)C5CC5)n4)CCOCC3)nc2)n1", "cell line": "EFE-184", "test": "cell proliferation, CellTiter-Glo", "conditions": "72 h", "IC50 [µM]": 0.197}
{"SMILES": "CN(C)C(=O)c1ccnc(N2Cc3cn(Cc4ccc(F)cc4Cl)nc3C2)n1", "cell line": "HEK293 expressing GluA1 and GluA2", "test": "glutamate excitotoxic cell death, CellTox Green", "conditions": "together with: glutamate", "IC50 [µM]": 0.007}
{"SMILES": "CNS(=O)(=O)Nc1nccc(Cc2c(C)c3ccc(Oc4ncccc4F)cc3oc2=O)c1F", "cell line": "MJ (G11)", "test": "cell viability, CellTiter-Glo", "conditions": "7 days", "IC50 [µM]": "> 1"}
{"SMILES": "COc1cc(-c2cc(C(C)=O)n3ccccc23)cc(OC)c1CN1CC(O)C1", "cell line": "MV4-11", "test": "cell growth or viability, ATP luminescence", "IC50 [µM]": 1.95}
{"SMILES": "O=C(NCC(F)(F)F)c1cccc(N2Cc3cnn(Cc4ccc(F)cc4)c3C2)c1", "cell line": "HEK293 expressing GluA1 and GluA2", "test": "glutamate excitotoxic cell death, CellTox Green", "conditions": "together with: glutamate", "IC50 [µM]": 0.013}
{"SMILES": "O=C1CS/C(=N\\N=C\\c2cccc3cc4ccccc4nc23)N1c1ccc([N+](=O)[O-])cc1", "cell line": "SK-BR-3", "test": "cell growth or viability, MTT", "conditions": "48 h", "IC50 [µM]": "> 50"}
{"SMILES": "Cc1ccc([N+](=O)[O-])cc1S(=O)(=O)N(C)/N=C/c1cnc2ccc(Br)cn12", "cell line": "UACC-257", "test": "cell growth or viability", "IC50 [µM]": 2.32}
{"SMILES": "CC(=O)OC[C@H]1O[C@@H](Oc2ccc(C#[C][Pt+])cc2)[C@H](OC(C)=O)[C@@H](OC(C)=O)[C@@H]1OC(C)=O.O=S(=O)([O-])C(F)(F)F.c1ccc(-c2cccc(-c3ccccn3)n2)nc1", "cell line": "CCD 19Lu", "test": "cell growth or viability", "conditions": "48 h", "IC50 [µM]": "> 100"}
{"SMILES": "CC(C)=CC1OC(C)(C)C2C=C3C(=O)C(Cl)=CC(O)C3C3C(O)C4OC4C(=O)C132 (stereo not shown)", "cell line": "MDA-MB-435S", "test": "cell growth or viability, MTS", "IC50 [µM]": 9.69}
{"SMILES": "CCN(CC)C(=O)c1cncc(N2Cc3cn(Cc4ccc(F)cc4)nc3C2)n1", "cell line": "HEK293 expressing GluA1 and GluA2", "test": "glutamate excitotoxic cell death, CellTox Green", "conditions": "together with: glutamate", "IC50 [µM]": 0.25}
{"SMILES": "c1ccc2c(-c3cn(-c4ccncc4)nn3)c3ccccc3c(-c3cn(-c4ccncc4)nn3)c2c1", "cell line": "AGS", "test": "cell growth or viability, MTT", "conditions": "24 h", "IC50 [µM]": "> 20"}
{"SMILES": "O=C(c1ccnc(N2Cc3cn(Cc4ccc(F)cc4)nc3C2)n1)N1CCOCC1", "cell line": "HEK293 expressing GluA1 and GluA2", "test": "glutamate excitotoxic cell death, CellTox Green", "conditions": "together with: glutamate", "IC50 [µM]": 0.044}
{"SMILES": "COc1cc(-c2cc(C(C)=O)n3ccccc23)c(OC)cc1CN1CCOCC1", "cell line": "MV4-11", "test": "cell growth or viability, ATP luminescence", "IC50 [µM]": 5.21}
{"SMILES": "COc1ccc(Cn2cc3c(n2)CN(c2cncc(C(=O)N(C)C)n2)C3)cc1", "cell line": "HEK293 expressing GluA1 and GluA2", "test": "glutamate excitotoxic cell death, CellTox Green", "conditions": "together with: glutamate", "IC50 [µM]": 0.054}
{"SMILES": "O=C1CS/C(=N\\N=C\\c2cccc3cc4ccccc4nc23)N1c1ccccc1", "cell line": "SK-BR-3", "test": "cell growth or viability, MTT", "conditions": "48 h", "IC50 [µM]": "> 50"}
{"SMILES": "CN(C)C(=O)c1cccc(N2Cc3cn(Cc4cccc(F)c4)nc3C2)c1", "cell line": "HEK293 expressing GluA1 and GluA2", "test": "glutamate excitotoxic cell death, CellTox Green", "conditions": "together with: glutamate", "IC50 [µM]": 0.047}
{"SMILES": "NC(=O)c1ccc(-c2ccccc2Cl)c2c3c([nH]c12)CC[C@H](N)C3", "cell line": "SGC-7901", "test": "cell growth or viability", "IC50 [µM]": 0.033}
{"SMILES": "CN(C)C(=O)c1ccnc(N2Cc3cn(Cc4cccc(C(F)(F)F)c4)nc3C2)n1", "cell line": "HEK293 expressing GluA1 and GluA2", "test": "glutamate excitotoxic cell death, CellTox Green", "conditions": "together with: glutamate", "IC50 [µM]": 0.056}
{"SMILES": "CC(CCC(=O)OCc1cccc(CN(C(=O)OCc2ccc(B3OC(C)(C)C(C)(C)O3)cc2)[c-]2cccc2)c1)C1CCC2C3C(O)CC4CC(O)CCC4(C)C3CCC12C.[Fe+2].c1cc[cH-]c1 (stereo not shown)", "cell line": "BL2", "test": "cell growth or viability, MTT", "conditions": "48 h", "IC50 [µM]": 46}
